Results pooled from the literature.
Protocols differ between the studies behind these lines. ± marks the error that the study gave.
Organism: Acinetobacter baumannii

SMILES | assay | system | setting | how to read | MIC
CC[C@H](C)CCCCC(=O)N[C@@H](CCN)C(=O)N[C@H](C(=O)N[C@@H](CCN)C(=O)N[C@H]1CCNC(=O)[C@H]([C@@H](C)O)NC(=O)[C@H](CCN)NC(=O)[C@H](CCN)NC(=O)[C@H](CC(C)C)NC(=O)[C@@H](CC(C)C)NC(=O)[C@H](CCN)NC1=O)[C@@H](C)O | – | AB1, multidrug-resistant | – | – | 2 µg/mL
C[C@H]1COc2c(N3CCN(C)CC3)c(F)cc3c(=O)c(C(=O)N[C@@H](CCCNC(=N)N)C(=O)N[C@@H](Cc4ccc(-c5ccccc5)cc4)C(=O)N[C@@H](CCCNC(=N)N)C(=O)N[C@@H](Cc4ccc(-c5ccccc5)cc4)C(=O)N[C@@H](CCCNC(=N)N)C(N)=O)cn1c23 | broth microdilution | ATCC 1799 | 18 h, 37 °C | – | 2.5 µM
CC(C)[C@@H]1NC(=O)[C@@H]2CCCN2C(=O)[C@@H](C)NC(=O)[C@H](CO)NC(=O)[C@H](C)NC(=O)[C@H](C(C)(C)C)NC(=O)[C@H](CCO)NC(=O)[C@H](Cc2c[nH]c3ccccc23)NC(=O)[C@H](CCO)NC(=O)[C@@H](CCN)NC(=O)[C@H](CCC(N)=O)NC(=O)[C@H](CCN)NC(=O)[C@H](Cc2ccc(O)cc2)NC(=O)[C@H]([C@@H](C)O)NC1=O | broth microdilution | NDM-2, NRZ 00687, CAMHB with 0.002% polysorbate-80 | 16 h, 37 °C | – | > 64 µg/mL
CC(C)C[C@H](NC(=O)[C@H](Cc1ccc(O)cc1)NC(=O)[C@@H]1CCCN1C(=O)[C@H](CCCNC(=N)N)NC(=O)[C@@H]1CCCN1C(=O)[C@H](CCCCN)NC(=O)[C@H](CC(=O)O)NC(=O)[C@@H]1CCCN1C(=O)[C@H](CCCNC(=N)N)NC(=O)C1(N)CCCCC1)C(=O)N1CCC[C@H]1C(=O)N[C@@H](CCCNC(=N)N)C(=O)N1CCC[C@H]1C(=O)N[C@@H](CCCNC(=N)N)C(=O)N1CCC[C@H]1C(=O)N1CCC[C@H]1C(=O)N[C@@H](CCCNC(=N)N)C(=O)N1CCC[C@H]1C(=O)N[C@H](C(=O)N[C@@H](CCCNC(=N)N)C(=O)N[C@@H](CSCc1cccc(CSC[C@H](NC(=O)[C@H](CCCNC(=N)N)NC(=O)[C@@H](NC(=O)[C@@H]2CCCN2C(=O)[C@H](CCCNC(=N)N)NC(=O)[C@@H]2CCCN2C(=O)[C@@H]2CCCN2C(=O)[C@H](CCCNC(=N)N)NC(=O)[C@@H]2CCCN2C(=O)[C@H](CCCNC(=N)N)NC(=O)[C@@H]2CCCN2C(=O)[C@H](CC(C)C)NC(=O)[C@H](Cc2ccc(O)cc2)NC(=O)[C@@H]2CCCN2C(=O)[C@H](CCCNC(=N)N)NC(=O)[C@@H]2CCCN2C(=O)[C@H](CCCCN)NC(=O)[C@H](CC(=O)O)NC(=O)[C@@H]2CCCN2C(=O)[C@H](CCCNC(=N)N)NC(=O)C2(N)CCCCC2)C(C)C)C(=O)NN)c1)C(=O)NN)C(C)C | bacterial growth | ATCC 19606, 100% Mueller-Hinton broth | 90 min, 37 °C, strain ATCC 19606 | – | 13.1 ± 0.6 µg/mL
CC(C)C[C@@H]1NC(=O)[C@@H](CC(C)C)NC(=O)[C@H](CCN)NC(=O)[C@@H](NC(=O)[C@H](CCN)NC(=O)[C@@H](N)[C@@H](C)O)CCNC(=O)[C@H]([C@@H](C)O)NC(=O)[C@H](CCN)NC(=O)[C@H](CCN)NC1=O | broth microdilution | multidrug-resistant, CAMHB with 0.002% polysorbate-80 | 16 h, 37 °C | – | > 64 µg/mL
CC[C@H](C)[C@H](NC(=O)[C@H](CCCCN)NC(=O)[C@H](CC(N)=O)NC(=O)[C@H](Cc1c[nH]c2ccccc12)NC(=O)[C@H](Cc1ccccc1)NC(=O)[C@H](CCCCN)NC(=O)[C@H](CCCNC(=N)N)NC(=O)[C@H](CC(C)C)NC(=O)[C@H](Cc1c[nH]c2ccccc12)NC(=O)[C@H](CCCCN)NC(=O)[C@H](CCCNC(=N)N)NC(=O)[C@H](CC(C)C)NC(=O)CNC(C)=O)C(=O)N[C@@H](CCCCN)C(=O)N[C@@H](CCCNC(=N)N)C(N)=O | bacterial growth, broth microdilution | multidrug-resistant | – | – | 6.25 µM
C[C@@H](N)[C@H](O)CCCCCCCC(=O)CCCCCCCCCCCCCC[C@@H](O[C@@H]1O[C@H](CO)[C@H](O)[C@H](O)[C@H]1O)[C@H](N)CO | microbial growth, resazurin | ATCC19606 | 6 h | – | 14.7 µM
CC[C@H](C)[C@@H]1NC(=O)[C@@H](CC(C)C)NC(=O)[C@H](CCN)NC(=O)[C@@H](NC(=O)[C@@H](CO)NC(=O)[C@@H](NC(=O)[C@H](CCN)NC(=O)c2ccc(-c3ccccc3)cc2)[C@@H](C)O)CCNC(=O)[C@H](CC(C)C)NC(=O)[C@H](CCN)NC(=O)[C@H](CCN)NC1=O | – | 0301, mcr-1 transformed | – | – | < 2 µg/mL
CCCCCCCCCCCCCC(=O)N[C@H](CCN)C(=O)N[C@H](C(=O)N[C@H]1CCNC(=O)[C@H](CC(=O)O)NC(=O)[C@H](C(C)C)NC(=O)[C@@H](Cc2ccc(O)cc2)NC(=O)[C@H](CCN)NC(=O)[C@H](CC(C)C)NC(=O)[C@@H](Cc2ccccc2)NC(=O)[C@H](CCN)NC(=O)[C@H](CC(C)C)NC1=O)[C@@H](C)O | broth microdilution | BNCC 194496 | – | – | 4 µg/mL
COc1cc2c(=O)c(C(=O)NCCNCCO)cn(Cc3ccccc3)c2cc1OCc1cccc(Br)c1 | – | ATCC 19606 | – | ≥80% growth inhibition | 0.5 µg/mL
CC[C@H](C)[C@H](NC(=O)[C@H](CCCCN)NC(=O)[C@H](CC(N)=O)NC(=O)[C@H](Cc1c[nH]c2ccccc12)NC(=O)[C@H](Cc1ccccc1)NC(=O)[C@H](CCCCN)NC(=O)[C@H](CCCCNC(=N)N)NC(=O)[C@H](CC(C)C)NC(=O)[C@H](Cc1c[nH]c2ccccc12)NC(=O)[C@H](CCCCN)NC(=O)[C@H](CCCCNC(=N)N)NC(=O)[C@H](CC(C)C)NC(=O)CNC(C)=O)C(=O)N[C@@H](CCCCN)C(=O)N[C@@H](CCCCNC(=N)N)C(N)=O | bacterial growth, broth microdilution | multidrug-resistant | – | – | 3.12 µM
CCn1c(-c2ccc(-c3ccc(F)cc3)cc2)c(-c2ccc(-c3ccc(F)cc3)cc2)n(CC)c1=[Se+][Au-][P+](c1ccccc1)(c1ccccc1)c1ccccc1.[Cl-] | broth microdilution | carbapenem-resistant | 24 h | – | > 40 µM
CC[C@H](C)[C@H](NC(=O)[C@@H](CCCNC(=N)N)NC(=O)[C@H](CCCNC(=N)N)NC(=O)[C@H](CCCNC(=N)N)NC(=O)[C@H](Cc1c[nH]c2ccccc12)NC(=O)[C@H](CCCNC(=N)N)NC(=O)[C@@H]1CCCN1C(=O)[C@H](CCCNC(=N)N)NC(=O)[C@@H]1CCCN1C(=O)[C@H](CC(C)C)NC(=O)[C@H](Cc1ccc(O)cc1)NC(=O)[C@@H]1CCCN1C(=O)[C@@H]1CCCN1C(=O)[C@H](CCCCN)NC(=O)[C@H](CC(=O)O)NC(=O)[C@@H](N)C(C)C)C(=O)N[C@@H](Cc1ccc(O)cc1)C(=O)N[C@@H](CC(N)=O)C(=O)N[C@H](CCCNC(=N)N)C(N)=O | broth microdilution | DSM 30008 | 18 h | – | 16 µg/mL
CC(C)C[C@H](NC(=O)[C@H](Cc1ccc(O)cc1)NC(=O)[C@@H]1CCCN1C(=O)[C@H](CCCNC(=N)N)NC(=O)[C@@H]1CCCN1C(=O)[C@H](CCCCN)NC(=O)[C@H](CC(=O)O)NC(=O)[C@@H]1CCCN1C(=O)[C@H](CCCNC(=N)N)NC(=O)C1(N)CCCCC1)C(=O)N1CCC[C@H]1C(=O)N[C@@H](CCCNC(=N)N)C(=O)N1CCC[C@H]1C(=O)N[C@@H](CCCNC(=N)N)C(=O)N1CCC[C@H]1C(=O)N1CCC[C@H]1C(=O)N[C@@H](CCCNC(=N)N)C(=O)N1CCC[C@H]1C(=O)N[C@H](C(=O)N[C@@H](CCCNC(=N)N)C(=O)N[C@@H](CSc1c(F)c(F)c(-c2c(F)c(F)c(SC[C@H](NC(=O)[C@H](CCCNC(=N)N)NC(=O)[C@@H](NC(=O)[C@@H]3CCCN3C(=O)[C@H](CCCNC(=N)N)NC(=O)[C@@H]3CCCN3C(=O)[C@@H]3CCCN3C(=O)[C@H](CCCNC(=N)N)NC(=O)[C@@H]3CCCN3C(=O)[C@H](CCCNC(=N)N)NC(=O)[C@@H]3CCCN3C(=O)[C@H](CC(C)C)NC(=O)[C@H](Cc3ccc(O)cc3)NC(=O)[C@@H]3CCCN3C(=O)[C@H](CCCNC(=N)N)NC(=O)[C@@H]3CCCN3C(=O)[C@H](CCCCN)NC(=O)[C@H](CC(=O)O)NC(=O)[C@@H]3CCCN3C(=O)[C@H](CCCNC(=N)N)NC(=O)C3(N)CCCCC3)C(C)C)C(=O)NN)c(F)c2F)c(F)c1F)C(=O)NN)C(C)C | bacterial growth | ATCC 19606, 100% Mueller-Hinton broth | 90 min, 37 °C, strain ATCC 19606 | – | 4.9 ± 1.3 µg/mL
CC[C@H](C)[C@H](NC(=O)[C@H](C)NC(=O)[C@@H](NC(=O)[C@H](CC(=O)O)NC(=O)[C@H](CCCCN)NC(=O)[C@H](CO)NC(=O)[C@@H](NC(=O)[C@H](CC(N)=O)NC(=O)[C@H](C)NC(=O)[C@@H](NC(=O)[C@H](CCC(=O)O)NC(=O)[C@H](CCCCN)NC(=O)[C@@H](NC(=O)[C@@H](NC(=O)[C@H](Cc1c[nH]cn1)NC(=O)[C@H](CCCCN)NC(=O)[C@@H](NC(=O)[C@H](CCCCN)NC(=O)[C@H](CCCCN)NC(=O)[C@@H](NC(=O)[C@H](CC(C)C)NC(=O)[C@H](CCCCN)NC(=O)[C@H](CC(N)=O)NC(=O)[C@H](Cc1ccccc1)NC(=O)[C@H](CCCNC(=N)N)NC(=O)[C@H](CCCCN)NC(=O)[C@H](CCCNC(=N)N)NC(=O)[C@H](Cc1ccccc1)NC(=O)CN)C(C)C)C(C)C)[C@@H](C)O)[C@@H](C)CC)[C@@H](C)O)C(C)C)C(C)C)C(=O)N[C@H](C(=O)N[C@@H](C)C(=O)NCC(=O)N[C@@H](CO)C(=O)NCC(=O)N[C@H](C(=O)N[C@@H](C)C(=O)N[C@H](C(=O)NCC(=O)N[C@@H](C)C(=O)N[C@@H](C)C(=O)N[C@@H](CCSC)C(N)=O)C(C)C)C(C)C)C(C)C | – | isolate RKI 19/09, CAMHB | – | – | 4 µg/mL

For quick reference, copied from above:
SMILES | assay | system | setting | how to read | MIC
CC[C@H](C)[C@@H]1NC(=O)[C@@H](CC(C)C)NC(=O)[C@H](CCN)NC(=O)[C@@H](NC(=O)[C@@H](CO)NC(=O)[C@@H](NC(=O)[C@H](CCN)NC(=O)c2ccc(-c3ccccc3)cc2)[C@@H](C)O)CCNC(=O)[C@H](CC(C)C)NC(=O)[C@H](CCN)NC(=O)[C@H](CCN)NC1=O | – | 0301, mcr-1 transformed | – | – | < 2 µg/mL
CCCCCCCCCCCCCC(=O)N[C@H](CCN)C(=O)N[C@H](C(=O)N[C@H]1CCNC(=O)[C@H](CC(=O)O)NC(=O)[C@H](C(C)C)NC(=O)[C@@H](Cc2ccc(O)cc2)NC(=O)[C@H](CCN)NC(=O)[C@H](CC(C)C)NC(=O)[C@@H](Cc2ccccc2)NC(=O)[C@H](CCN)NC(=O)[C@H](CC(C)C)NC1=O)[C@@H](C)O | broth microdilution | BNCC 194496 | – | – | 4 µg/mL
